Assay results pooled from the literature.
Each numbered part is a random draw from the data of one study; scales do not carry over between parts.

Study 1
Substance: PhoQ, residues 284 288 289 292 302 303 TNASYF
Technique: Sort-seq
Item: YFP reporter
Matrix: E. coli
Setting: PhoQ-PhoP variant library
With: 10 µM Mg2+
Relative to: high Mg2+ state
Direction: higher = stronger signaling
Quantity: fold induction
target = PhoP, residues 12 14 15 18 19 NQCAL (Escherichia coli, UniProt P23836); value = 10
target = PhoP, residues 12 14 15 18 19 TQAML (Escherichia coli, UniProt P23836); value = 10.5
target = PhoP, residues 12 14 15 18 19 LHTVL (Escherichia coli, UniProt P23836); value = 16.4

Study 2
Target: RING finger protein unkempt homolog, zinc fingers 1-6, GST-SBP tag (UNK, Homo sapiens, UniProt Q9C0B0, residues 30-357)
Technique: RNA Bind-n-Seq
Form: RNA
Matrix: in vitro
Concentration: not given
Setting: RNA with constant flanks, human and mouse sites, ends assumed
Relative to: input RNA pool
Direction: higher = stronger binding
Quantity: bound/input enrichment
Target sequence (chain): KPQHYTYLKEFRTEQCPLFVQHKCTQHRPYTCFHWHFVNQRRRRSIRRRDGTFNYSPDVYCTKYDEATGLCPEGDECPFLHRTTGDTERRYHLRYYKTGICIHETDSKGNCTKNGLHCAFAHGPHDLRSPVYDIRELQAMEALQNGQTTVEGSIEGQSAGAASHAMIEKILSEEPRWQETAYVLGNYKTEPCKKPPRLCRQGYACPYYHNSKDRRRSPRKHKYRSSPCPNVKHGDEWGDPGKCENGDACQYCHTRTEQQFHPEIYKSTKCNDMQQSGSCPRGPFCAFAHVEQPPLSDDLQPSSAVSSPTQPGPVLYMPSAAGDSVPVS
Sequence = GGGAGUUCUACAGUCCGACGAUCUUUCAUCUUCUGGAGUUAGAAAAGGUCCACGAACUAUGUGAUAACUUCUGCCACCGGUACAUUAGCUGUUUGAAGGGAAAAAUGCCCAUUGACCUCGUGAUUGAUGAGAGAGAUGGAAGCCAACAGAGGAUUGAGCAUCA; value = 0.451 ratio
Sequence = GGGAGUUCUACAGUCCGACGAUCGGCAUGAAGGAUGACCGUCGGGACAGAUACUCUGCGGGCAAAAGGGGUGGAUUUAAUACCUUUAGAGACAGGGAAAAUUAUGACAGAGGUUACUCUAGCCUGCUUAAAAGAGAUUUUGGGCAACAGAGGAUUGAGCAUCA; value = 0.77 ratio
Sequence = GGGAGUUCUACAGUCCGACGAUCUCCUUCUAUGAUGGGGAUUCCACCAGUACUGUUGCUGCUCUUCUCAUAGACUUCAAAAGCUCAUUGCUUCCUCACCUCCCAGUUCAUUUCCAUGGAUCAAGCAAUUUUCUGAUGAUUGCCCAACAGAGGAUUGAGCAUCA; value = 0.43 ratio
Sequence = GGGAGUUCUACAGUCCGACGAUCCUGUCCAGCACUGCCACGCCCGUGGAGUUGUCCAUCGGGAUAUCAAGGAUGAGAACAUCCUGAUCGACCUAUGCCGGGGUUCCAUUAAACUCAUUGAUUUUGGUUCCGGCGCCCUGCUUCCAACAGAGGAUUGAGCAUCA; value = 0.0811 ratio

Study 3
Target: Interferon regulatory factor 5, full length, phosphomimetic (IRF5, Homo sapiens, UniProt Q13568-2, residues 1-514, K96S/S451D/S453D/S456D/S462D)
Technique: protein-binding microarray
Form: double-stranded DNA, one strand shown
Matrix: in vitro
Concentration: 250 nM
Setting: 60-bp whole probe
With: salmon DNA 0.4 mg/ml
Relative to: random background probes
Direction: higher = stronger binding
Quantity: log fluorescence
Shared flanks, not repeated: GCCTAGCAC … GTCTTGATTCGCTTGACGCTGCTG
Sequence = TCAATTTTTTTTCTAACACTGTGCTAG; value = 0.889 z-score
Sequence = TTAGGTTTCCTTATCGTTTAGTGCTAG; value = 2.09 z-score
Sequence = GTAGATCTCAGTCTCGATTAGTGCTAG; value = 0.561 z-score
Sequence = TTAGGTTTCGACCTTCGGTTAGTGCTA; value = 6.67 z-score
Sequence = GCCCCTCTCCTCTCAGGAGCTGTGCTA; value = -0.76 z-score
Sequence = AAGACTTTGCTCTGTGCATAGGTGCTA; value = -0.222 z-score
Sequence = ATAGATCTCAGTCTCGATTAGTGCTAG; value = 0.894 z-score
Sequence = TCAGCTCCAGGTTCTCTGACTGTGCTA; value = -0.65 z-score
Sequence = TTAGATATCGGGTATCGATGAGTGCTA; value = 4.62 z-score

Study 4
Target: Histone acetyltransferase KAT6A, winged helix 2, GST fusion (KAT6A, Homo sapiens, UniProt Q92794, residues 85-181)
Technique: protein binding microarray
Form: double-stranded DNA, one strand shown
Matrix: in vitro
Concentration: not given
Setting: 8-mer, flanks averaged, mean of 2 arrays, mostly near background
Relative to: not given
Direction: higher = stronger binding
Quantity: E-score
Residues (chain): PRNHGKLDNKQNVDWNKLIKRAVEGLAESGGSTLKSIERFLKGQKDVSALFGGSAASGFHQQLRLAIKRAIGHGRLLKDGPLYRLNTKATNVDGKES
Sequence = ATTTCCAG; value = -0.0498
Sequence = AGAAAAAG; value = 0.11
Sequence = ATTGATCG; value = 0.105
Sequence = TCACCAGA; value = -0.177
Sequence = ACTATACA; value = 0.0137
Sequence = ACTTCCAG; value = -0.0954
Sequence = ACTAGATA; value = 0.0354
Sequence = CTGTTGAC; value = -0.0757
Sequence = AGCACACA; value = -0.105
Sequence = CTGGCAAG; value = 0.0511
Sequence = ACGACGTG; value = -0.0863

For quick reference, copied from above (study 4):
Sequence = CTGTTGAC; value = -0.0757
Sequence = AGAAAAAG; value = 0.11
Sequence = ACTATACA; value = 0.0137
